# Assay results gathered from unrelated publications.
# Numbered parts are unrelated; each lists some results of a single study. Changes are numbered by the printed parent chain.

# Set 1
# Target: Ras GTPase-activating protein-binding protein 1, C-terminal RGG region (G3BP1, Homo sapiens, UniProt Q13283)
# UniProt Q13283, sequence (whole entry, looked up): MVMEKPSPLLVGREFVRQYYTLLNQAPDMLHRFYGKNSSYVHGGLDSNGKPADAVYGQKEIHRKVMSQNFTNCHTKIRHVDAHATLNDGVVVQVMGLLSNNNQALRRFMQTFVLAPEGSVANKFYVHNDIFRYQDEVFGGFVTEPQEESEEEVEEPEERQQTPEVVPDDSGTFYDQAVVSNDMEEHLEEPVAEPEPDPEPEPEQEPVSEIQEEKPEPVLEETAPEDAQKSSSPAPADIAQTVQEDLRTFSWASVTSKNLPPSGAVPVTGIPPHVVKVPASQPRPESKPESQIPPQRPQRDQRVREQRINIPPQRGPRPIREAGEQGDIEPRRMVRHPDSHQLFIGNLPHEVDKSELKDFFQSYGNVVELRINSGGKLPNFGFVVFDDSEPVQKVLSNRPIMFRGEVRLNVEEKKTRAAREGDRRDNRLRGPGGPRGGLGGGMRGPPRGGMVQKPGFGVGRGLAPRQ
# Technique: RNA Bind-n-Seq
# Form: RNA
# Medium: in vitro
# Tested at: 1 µM
# Setting: whole 134-nt RNA, ends assumed
# Added: 150 mM KCl
# Relative to: input library
# Reading: higher = stronger binding
# Constant ends, left off below: GGGAGUUCUACAGUCCGACGAUC … UGGAAUUCUCGGGUGUCAAGG
Strand,log2 enrichment
UGGGAGGUGGAUUUUGUUUAUUUUUUUAGCUCAUUUCCAGGGGCGGGAAUUUUUUUUUAAUAUGUGUCAUGAAUAAAGUUGUUUUUGAAA,2.37
ACCAUGCAGGUGGGCAUCUUUGGGAGGUGGGGCAAGGGGGGGAUAGGGAGGGGGGUAACACUUUGGGAACAGGUGGUCCCAGGUCGUUUC,-1.32
AGUCCUGUGCUACACAUCGUAUGUACCGAAUCAAAUUUUUAAACCCCCAAACCCAAAAAAGUAUUAUGUUACGCCGUUCGGAUCUGCACU,-0.956
CUGUGCUACACAUCGUAUGUACCGAAUCGGGUUUUUUUGGGUUUUUUUGGGGUUUUUUUGGAAAGUAUUAUGUUACGCCGUUCGGAUCUG,-0.988
UCCUGUGCUACACAUCGUAUGUACCGAAUCGGAAAAAAAGGGAAAAAAAGGAAAAAAAGGAAAGUAUUAUGUUACGCCGUUCGGAUCUGC,-1.07
AGUCCUGUGCUACACAUCGUAUGUACCGAAUCGGGGUUUUUUUGGGGAGGGGUGGGGAAAGUAUUAUGUUACGCCGUUCGGAUCUGCACU,2.23
UGGGAGGUGGAUUUUGUUUAUUUUUUUAGCUCAAUUCCAGGGGUGGGAAUUUUUUUUUAAUAUGUGUCAUGAAUAAAGUUGUUUUUGAAA,3.38
CCUGUGCUACACAUCGUAUGUACCGAAUCGGGGAAAAAAGGGAAAAAAGGGGAAAAAAGGGAAAGUAUUAUGUUACGCCGUUCGGAUCUG,-1.38
CCUGUGCUACACAUCGUAUGUACCGAAUCGGGGAAAAAAAGGGGAAAAAGGGGUUUGGGGAAAGUAUUAUGUUACGCCGUUCGGAUCUGC,0.915
AAGUCCUGUGCUACACAUCGUAUGUACCGAAUCGGGGAAAGGGGUUUGGGGAGGGGAAAGUAUUAUGUUACGCCGUUCGGAUCUGCACUU,3.62
ACCAUGCAGGUGGGCAUCUUUGGGAAGUGGGGCAAAAGGGGGAUAGGGAGGGGGGUAACACUUUGGGAACAGGUGGUCCCAGGUCGUUUC,-1.06
ACCAUGCAGGUGGGCAUCUUUGGGAAGUGGGGCAAGGGGGGGAUAGGGAGGGGGGUAACACUUUGGGAAGAGGUGGUCCCAGGUCGUUUC,2.11
GUCCUGUGCUACACAUCGUAUGUACCGAAUCGGGGAAAAAGGGGAAAAAGGAAAAAGGGAAAGUAUUAUGUUACGCCGUUCGGAUCUGCA,-1.35
GUCCUGUGCUACACAUCGUAUGUACCGAAUCGGAAAAAGGUUUUUUUGGUUUUUUUGGAAAGUAUUAUGUUACGCCGUUCGGAUCUGCAC,-1.98

# Set 2
# Target: RNA binding protein fox-1 homolog 2, RRM domain, GST-SBP tag (RBFOX2, Homo sapiens, UniProt O43251-10, residues 100-194)
# Technique: RNA Bind-n-Seq
# Form: RNA
# Medium: in vitro
# Tested at: 365 nM
# Setting: natural RNA segment, single round, ends assumed
# Relative to: no-protein control
# Reading: higher = stronger binding
# Constant ends, left off below: GGGAGUUCUACAGUCCGACGAUC … UGGAAUUCUCGGGUGCCAA
# Target sequence (chain): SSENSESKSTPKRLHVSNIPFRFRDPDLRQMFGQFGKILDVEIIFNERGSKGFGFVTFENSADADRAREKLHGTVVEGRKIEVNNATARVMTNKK
Strand,RBNS enrichment (R)
UAAUCCUGACAUACAGAACAAAGAAUGCAGUAACAUUAGCCCUGCCAGGUCACGUGUAGGACGUGCUUAUCCAGUUUUUUCCCCCUUUACCUGCAUAGUUGCUACAUACA,0.52
GAAGGUCCCCCAACUCAGUUUUUUGCUUCUGCCAGGGAGCCUAAGUACCCACCCCGUCCACCUCCCCCAUGAAGGCAGCUGAGCUUUCAGAGCUGGGUUCAAAAAGAAAA,0.399
CUGUUUGACAGUUUAACUCAAGUCAUGCUUCAAACUGUUUUAAUGAUCAAAUCAAGACACAUUUCAUUUUACAUUUUAUUAUUGUACAGUUUUUGUUUCGGAUGAUGAUC,0.328
CCCUUGCUGCCGCGGGCCAGGAACAGGAAUGUGUUGGUGCCUGAGACACCAAAUGGAAGAAGCACAUCAAGACUGUUCUCCUGCGGCCAACACUGGCCCGGAAGCCGCCC,0.643
AAUUUCACUGGUUCGUUCAAUCCAGCUUGUUGCUAAUAUUAGUUACCCUUGUUUUAAUGACAGAGAGUGGCUGGAAUCUGUAGCUAGGGGAGGGGCAACACUGUUAGAUG,0.406
UCUUCGUGCCUGGCUCAUGGUAGAGCACAGUCAUGCACUGACCAAUGGAGGCAGCGUGUACACAUCGUCUUGAGUUUACGUUAUGACAUGGUUUAUUUUUAGUGCUAUUU,0.509
UUUGGCCUUGAACAAAACCAAGUCCACUGGGGACAGAGGCAGGGGCAAGUGGCUCUCCCCAUUACCUUCUCAAGACCUCAGUGGGAGCACCAGCCAAUGGUACCAUCGGC,0.346
UAGUUUACAGAUCAUAAUCCUAAGCAGUCAGGAGAGAAAUACGAACAGAAAUUACAUGAGGAAUAUUCCGGCUAGAUUAGGCGCCUGUGGAUAUUGGAGUUGGGUUGAUU,0.743
GCAGAGGUGGGACACUGAGGUGCUUUGCUUAAAUUUCAAAGCUUGCAUAUAUUCAUGUAAAUAUAUGAAUAUAUGACGUCUAUAAUAGACGUCAGCAAUUCAUUCGUCUA,0.498
ACUGGGCCCCAACACUGGCUUUGAGAUUUAGAGUCAAAGGGUAGAGUGAACAGGAAAGGGUCACGUGGUCCCAUGUUGCAACAGCCCCAACAUCACGCAUGUCAUUCACU,5.25
AAACUUGUAGGUUCACAUAUUAUUUUGACUAAGGUAUAUGGAUUUCCCCCCACUUACAUAAGUAAACCCAACAUAAGGAGGACCAUUCCUUUUCUUUCAUUCAGAUGACC,0.532
UUUCGGCUAGAGCCACCAUACUAGCAGUGACCUGUUAGGCUGCAGAGAGAAGGUGUGUCUGUGGUUCAGGAACAAGCUGUACAUUUUUCACCCUGACUAUGGGACGGAAA,0.48

# Set 3
# Target: CCNF, cyclin fold, Cln2 fusion (human)
# Technique: yeast growth competition, sequencing
# Medium: yeast
# Setting: strong parent motif
# Relative to: not given
# Reading: higher = stronger binding
# Parent: BRCA2 docking peptide (human); CKKRRALDFLSRL
Change,normalised enrichment score
CKKRRALDFLSRA [L13A],2.84
CAKRRALDFLSRL [K2A],2.36
CKKRAALDFLSRL [R5A],3.08
CKKRRALDFASRL [L10A],2.65
CKKARALDFLSRL [R4A],2.5
CKKRRALAFLSRL [D8A],2.18
CKKRRALDLLSRL [F9L],2.04

# Set 4
# Target: Interferon regulatory factor 5, full length, phosphomimetic (IRF5, Homo sapiens, UniProt Q13568-2, residues 1-514, S451D/S453D/S456D/S462D)
# Technique: protein-binding microarray
# Form: double-stranded DNA, one strand shown
# Medium: in vitro
# Tested at: 940 nM top
# Setting: 60-bp whole probe
# Added: salmon DNA 0.4 mg/ml
# Relative to: random background probes
# Reading: higher = stronger binding
# Constant ends, left off below: GCCTAGCAC … GTCTTGATTCGCTTGACGCTGCTG
Strand,fitted relative affinity [z-score]
TTAGATTTCAGACTAGATTAGTGCTAG,0.0903
GACGGTATCGTTATCGGGACGTGCTAG,4.4
GACGAACTGGGGTATCCAGACGTGCTA,-0.247
TTTGATTTCGGGACTGGATTAGTGCTA,0.95
TTAGGTTTGGACTATCGGTTAGTGCTA,0.12
AACGGACTGGACTTTCGGGACGTGCTA,0.0861
GACGGACTGGGAGTGGGGACGTGCTAG,-0.457
GACGAACTGGGGACTGGAGCCGTGCTA,-0.102
GACGGTATCGGTATCGGGATGTGCTAG,8.22
TTAGGTATCGCCTTTCGGTTAGTGCTA,4.37
TCAATTTTCATTTTCCAACTGTGCTAG,1.81
TTAGAGTTCAGTTCCGATTAGTGCTAG,1.14
TTAGATCTCAGACTGGATGAGTGCTAG,-0.128
GACTTTCTTTCAAATGAAGGAGTGCTA,2.04
AAAGATTTACAAACTGTGAGGGTGCTA,-0.348
GGGCATTTGGTTAGCGTATAGTGCTAG,-0.185
TTAGGTATCCTTTTGCTTTAGTGCTAG,0.718
TTAAGACTGGGGACTGGGTTAGTGCTA,-0.17
TTAGGACTGGGACTGTGTTAGTGCTAG,-0.502
TTAGGTTTCGACTAGCGGTTAGTGCTA,9.87
TTAGATATCAGACGGGATTAGTGCTAG,-0.514
GACGGTCTCCTACTGCTGAGGTGCTAG,-0.234
CTTTTTTTCAAGAAACAGTTCGTGCTA,0.176
GTGTTTTCACTTTTCCTACAGTGCTAG,3.07
ATCCCGCCTGCCCCACAGAAGTGCTAG,0.368

# Set 5
# Target: ABI1, truncated, D143A, DHFR fusion (Arabidopsis thaliana, UniProt P49597)
# Technique: DHFR PCA, dose-response
# Medium: yeast
# Setting: Hill fit, mean, not affinity
# Added: (+)-ABA, dose series
# Reading: lower = more sensitive
# Parent: PYL1, truncated, DHFR fusion (Arabidopsis thaliana, UniProt Q8VZS8); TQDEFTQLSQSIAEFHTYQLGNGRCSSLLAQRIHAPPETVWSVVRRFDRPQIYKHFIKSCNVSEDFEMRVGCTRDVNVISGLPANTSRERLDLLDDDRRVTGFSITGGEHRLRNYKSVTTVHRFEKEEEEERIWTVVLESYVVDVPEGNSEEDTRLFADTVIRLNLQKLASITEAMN
Change,ABA EC50 [µM]
P36S,2.31
D96H,59.8
R99S,73.9
S63C,2.88
L164I,3.75
V43Y,10.5
R113E,5.84
V161A,712
E139N,5.98
S150I,42.9
E147N,3.91
F5H,3.19
T39D,2.5
Q31G,168
G23Q,5.58
R90I,18.7
K168G,4.58
F5S,4.87
A170L,56.8
A30D,43.5
V100R,44.8
K126Q,1.89
Q31L,137
S59E,1.94

# Some of these lines once more (set 2):
Strand,RBNS enrichment (R)
CCCUUGCUGCCGCGGGCCAGGAACAGGAAUGUGUUGGUGCCUGAGACACCAAAUGGAAGAAGCACAUCAAGACUGUUCUCCUGCGGCCAACACUGGCCCGGAAGCCGCCC,0.643
ACUGGGCCCCAACACUGGCUUUGAGAUUUAGAGUCAAAGGGUAGAGUGAACAGGAAAGGGUCACGUGGUCCCAUGUUGCAACAGCCCCAACAUCACGCAUGUCAUUCACU,5.25
GCAGAGGUGGGACACUGAGGUGCUUUGCUUAAAUUUCAAAGCUUGCAUAUAUUCAUGUAAAUAUAUGAAUAUAUGACGUCUAUAAUAGACGUCAGCAAUUCAUUCGUCUA,0.498
UUUGGCCUUGAACAAAACCAAGUCCACUGGGGACAGAGGCAGGGGCAAGUGGCUCUCCCCAUUACCUUCUCAAGACCUCAGUGGGAGCACCAGCCAAUGGUACCAUCGGC,0.346
UCUUCGUGCCUGGCUCAUGGUAGAGCACAGUCAUGCACUGACCAAUGGAGGCAGCGUGUACACAUCGUCUUGAGUUUACGUUAUGACAUGGUUUAUUUUUAGUGCUAUUU,0.509
GAAGGUCCCCCAACUCAGUUUUUUGCUUCUGCCAGGGAGCCUAAGUACCCACCCCGUCCACCUCCCCCAUGAAGGCAGCUGAGCUUUCAGAGCUGGGUUCAAAAAGAAAA,0.399
UAGUUUACAGAUCAUAAUCCUAAGCAGUCAGGAGAGAAAUACGAACAGAAAUUACAUGAGGAAUAUUCCGGCUAGAUUAGGCGCCUGUGGAUAUUGGAGUUGGGUUGAUU,0.743
AAUUUCACUGGUUCGUUCAAUCCAGCUUGUUGCUAAUAUUAGUUACCCUUGUUUUAAUGACAGAGAGUGGCUGGAAUCUGUAGCUAGGGGAGGGGCAACACUGUUAGAUG,0.406
UUUCGGCUAGAGCCACCAUACUAGCAGUGACCUGUUAGGCUGCAGAGAGAAGGUGUGUCUGUGGUUCAGGAACAAGCUGUACAUUUUUCACCCUGACUAUGGGACGGAAA,0.48
